{"data": "Measurements gathered from unrelated publications", "note": "Every numbered part comes from another study and shows a few of its results, in no order."}
{"data": "Study 1", "target": "Centromere-binding protein 1, full length, N-terminal tag (CBF1, Saccharomyces cerevisiae, UniProt P17106, residues 1-351)", "technique": "protein-binding microarray", "molecule type": "double-stranded DNA, one strand shown", "matrix": "in vitro", "concentration": "0.8 µM", "notes": "whole 60-bp probe, no competitor", "reading": "higher = stronger binding", "shared flanks, not repeated": "… GTCTTGATTCGCTTGACGCTGCTG", "UniProt P17106, sequence (whole entry, looked up)": "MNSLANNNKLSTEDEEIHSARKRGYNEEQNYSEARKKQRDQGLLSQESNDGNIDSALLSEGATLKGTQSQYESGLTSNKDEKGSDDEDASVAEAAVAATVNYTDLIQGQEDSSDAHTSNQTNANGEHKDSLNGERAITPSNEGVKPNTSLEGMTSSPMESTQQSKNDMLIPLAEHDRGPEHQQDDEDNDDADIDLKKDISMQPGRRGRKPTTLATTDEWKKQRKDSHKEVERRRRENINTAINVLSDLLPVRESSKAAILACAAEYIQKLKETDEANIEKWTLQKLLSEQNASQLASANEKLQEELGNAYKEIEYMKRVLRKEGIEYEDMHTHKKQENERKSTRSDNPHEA"}
{"Strand": "GAAAATTTGCCAAGTAACGTGTTCTTTGTGTGGTAG", "fluorescence intensity [a.u.]": 825}
{"Strand": "CTACCTAGCAACTCAGAGGTGATGAATTAAAAGTTC", "fluorescence intensity [a.u.]": 523}
{"Strand": "GAAATCCACCTTCATCTCAGCTGTCCACATTAATAG", "fluorescence intensity [a.u.]": 504}
{"Strand": "GAATTTTGCACGGTTTATCACATGGACAAAGGCTAG", "fluorescence intensity [a.u.]": 1440}
{"Strand": "GAAGTAACCTTCAATGATGTCACGAAACACGGATAG", "fluorescence intensity [a.u.]": 603}
{"data": "Study 2", "target": "RING finger protein unkempt homolog, zinc fingers 1-6, GST-SBP tag (UNK, Homo sapiens, UniProt Q9C0B0, residues 30-357)", "technique": "RNA Bind-n-Seq", "molecule type": "RNA", "matrix": "in vitro", "concentration": "not given", "notes": "RNA with constant flanks, human-mouse chimeric sites, ends assumed", "reference": "input RNA pool", "reading": "higher = stronger binding", "Residues (chain)": "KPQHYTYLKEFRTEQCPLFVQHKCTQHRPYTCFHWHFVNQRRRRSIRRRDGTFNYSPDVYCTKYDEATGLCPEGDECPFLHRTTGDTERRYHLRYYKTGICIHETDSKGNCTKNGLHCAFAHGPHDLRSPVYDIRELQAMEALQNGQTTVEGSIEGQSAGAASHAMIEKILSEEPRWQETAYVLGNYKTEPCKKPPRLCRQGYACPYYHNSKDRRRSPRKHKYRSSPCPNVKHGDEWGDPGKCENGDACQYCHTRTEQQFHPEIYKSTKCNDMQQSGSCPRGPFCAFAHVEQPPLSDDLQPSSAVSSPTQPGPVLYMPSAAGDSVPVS"}
{"Strand": "GGGAGUUCUACAGUCCGACGAUCAACAGAUUGUCUUUAAGCAUUCCAAGCGAGAAUGCUGGGGUGAUCAUUGUUGCCCAUGUGCCUUCUGUAAUAGAUGGUAAUUAAUUGCAUGUUACAUCUUUCCUUCACUCCAGAAUUGUUCAACAGAGGAUUGAGCAUCA", "bound/input enrichment": "0.0874 ratio"}
{"Strand": "GGGAGUUCUACAGUCCGACGAUCCUGUGACCACAAGAUCCUACCUGAGUGGCAGCUGAAGUUGACUCCCUCUCCUUGCCUGCCUAGUUUCCCACUGCCCCCCCAUCCCCCGCAGAAUUCCGAGAUGUUGCCUCUGCACGGUUCCAACAGAGGAUUGAGCAUCA", "bound/input enrichment": "1.18 ratio"}
{"Strand": "GGGAGUUCUACAGUCCGACGAUCAGAAUCUUGGGACUGUUUUACUUAAUUGGUCAUUGAUAUCUCAACAAACAUGGAGAUAAGAUUAGAAGUUUUGACAUCAACAGGUAUUAAGCAGAAAAAACCAUGGCCACGUGUCUCCUGCAACAGAGGAUUGAGCAUCA", "bound/input enrichment": "0.656 ratio"}
{"data": "Study 3", "target": "Ras GTPase-activating protein-binding protein 1, C-terminal RGG region (G3BP1, Homo sapiens, UniProt Q13283)", "technique": "RNA Bind-n-Seq", "molecule type": "RNA", "matrix": "in vitro", "concentration": "1 µM", "notes": "whole 134-nt RNA, ends assumed", "added": "150 mM KCl", "reference": "input library", "reading": "higher = stronger binding", "UniProt Q13283, sequence (whole entry, looked up)": "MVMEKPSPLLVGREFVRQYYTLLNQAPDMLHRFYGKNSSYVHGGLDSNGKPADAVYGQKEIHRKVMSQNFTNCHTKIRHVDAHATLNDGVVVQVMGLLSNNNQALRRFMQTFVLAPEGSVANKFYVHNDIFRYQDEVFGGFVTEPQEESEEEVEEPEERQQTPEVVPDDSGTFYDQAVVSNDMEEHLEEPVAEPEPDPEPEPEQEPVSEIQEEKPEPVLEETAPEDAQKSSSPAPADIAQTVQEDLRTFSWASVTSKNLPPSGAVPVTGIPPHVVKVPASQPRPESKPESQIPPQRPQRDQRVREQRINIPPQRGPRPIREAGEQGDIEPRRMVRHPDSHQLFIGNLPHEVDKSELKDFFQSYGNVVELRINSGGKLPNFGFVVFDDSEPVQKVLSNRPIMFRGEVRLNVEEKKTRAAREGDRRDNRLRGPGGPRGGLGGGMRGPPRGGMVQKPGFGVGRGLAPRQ"}
{"Strand": "GGGAGUUCUACAGUCCGACGAUCGUCCUGUGCUACACAUCGUAUGUACCGAAUCGGGAAAAAAAGGGUGGGAAAAAAAGGGAAAGUAUUAUGUUACGCCGUUCGGAUCUGCACUGGAAUUCUCGGGUGUCAAGG", "log2 enrichment": -0.387}
{"Strand": "GGGAGUUCUACAGUCCGACGAUCACCAUGCAGGUGGGCAUCUUUGGGAAGUGGGGCAAGGGGGGGAUAGGGAGGGGGGUAACGCUUUGGGAACAGGUGGUCCCAGGUCGUUUCUGGAAUUCUCGGGUGUCAAGG", "log2 enrichment": 2.34}
{"Strand": "GGGAGUUCUACAGUCCGACGAUCCAAGUCCUGUGCUACACAUCGUAUGUACCGAAUCGGGUUUGGGAAAAAGGGAGGGAAAGUAUUAUGUUACGCCGUUCGGAUCUGCACUUCUGGAAUUCUCGGGUGUCAAGG", "log2 enrichment": 2.24}
{"data": "Other studies, line by line"}
{"Substance": "PhoQ, residues 284 288 289 292 302 303 SACGEM", "target": "PhoP, residues 12 14 15 18 19 LYHSL (Escherichia coli, UniProt P23836)", "assay": "Sort-seq, item: YFP reporter", "system": "E. coli", "conditions": "PhoQ-PhoP variant library, added: 10 µM Mg2+", "scale": "reference: high Mg2+ state, higher = stronger signaling", "measurement": "fold induction", "value": 23.9}
{"note": "Excerpt of the above (study 2):"}
{"Strand": "GGGAGUUCUACAGUCCGACGAUCAGAAUCUUGGGACUGUUUUACUUAAUUGGUCAUUGAUAUCUCAACAAACAUGGAGAUAAGAUUAGAAGUUUUGACAUCAACAGGUAUUAAGCAGAAAAAACCAUGGCCACGUGUCUCCUGCAACAGAGGAUUGAGCAUCA", "bound/input enrichment": "0.656 ratio"}
